Experimental data gathered from unrelated publications.
Each numbered part is a random draw from the data of one study; scales do not carry over between parts. Changes are numbered by the printed parent chain.

Series 1
Target: CCNB2, cyclin fold, Cln2 fusion (human)
Method: yeast growth competition, sequencing
Sample: yeast
Notes: weak parent motif
Baseline: not given
Reading: higher = stronger binding
Parent: PKN2 docking peptide (human); VSAVRKLDFSDTM; partner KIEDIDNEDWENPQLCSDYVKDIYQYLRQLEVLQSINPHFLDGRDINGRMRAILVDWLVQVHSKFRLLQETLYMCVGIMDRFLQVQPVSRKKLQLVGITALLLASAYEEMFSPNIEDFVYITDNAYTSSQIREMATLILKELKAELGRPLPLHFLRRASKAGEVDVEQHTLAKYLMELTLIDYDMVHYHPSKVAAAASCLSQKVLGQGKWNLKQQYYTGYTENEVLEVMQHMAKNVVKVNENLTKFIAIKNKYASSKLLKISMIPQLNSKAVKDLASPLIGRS
Under “normalised enrichment score”, `T12C` is recorded as 1.73.
For `K6F`, “normalised enrichment score” read -0.00357.
`T12L` — result for “normalised enrichment score”: 1.08.
`D8E` — result for “normalised enrichment score”: 0.245.
`R5T` — result for “normalised enrichment score”: -0.188.

Series 2
Target: Sal-like protein 4, full length isoform A (SALL4, Homo sapiens, UniProt Q9UJQ4, residues 1-1053)
Sequence of UniProt Q9UJQ4 (whole entry, looked up): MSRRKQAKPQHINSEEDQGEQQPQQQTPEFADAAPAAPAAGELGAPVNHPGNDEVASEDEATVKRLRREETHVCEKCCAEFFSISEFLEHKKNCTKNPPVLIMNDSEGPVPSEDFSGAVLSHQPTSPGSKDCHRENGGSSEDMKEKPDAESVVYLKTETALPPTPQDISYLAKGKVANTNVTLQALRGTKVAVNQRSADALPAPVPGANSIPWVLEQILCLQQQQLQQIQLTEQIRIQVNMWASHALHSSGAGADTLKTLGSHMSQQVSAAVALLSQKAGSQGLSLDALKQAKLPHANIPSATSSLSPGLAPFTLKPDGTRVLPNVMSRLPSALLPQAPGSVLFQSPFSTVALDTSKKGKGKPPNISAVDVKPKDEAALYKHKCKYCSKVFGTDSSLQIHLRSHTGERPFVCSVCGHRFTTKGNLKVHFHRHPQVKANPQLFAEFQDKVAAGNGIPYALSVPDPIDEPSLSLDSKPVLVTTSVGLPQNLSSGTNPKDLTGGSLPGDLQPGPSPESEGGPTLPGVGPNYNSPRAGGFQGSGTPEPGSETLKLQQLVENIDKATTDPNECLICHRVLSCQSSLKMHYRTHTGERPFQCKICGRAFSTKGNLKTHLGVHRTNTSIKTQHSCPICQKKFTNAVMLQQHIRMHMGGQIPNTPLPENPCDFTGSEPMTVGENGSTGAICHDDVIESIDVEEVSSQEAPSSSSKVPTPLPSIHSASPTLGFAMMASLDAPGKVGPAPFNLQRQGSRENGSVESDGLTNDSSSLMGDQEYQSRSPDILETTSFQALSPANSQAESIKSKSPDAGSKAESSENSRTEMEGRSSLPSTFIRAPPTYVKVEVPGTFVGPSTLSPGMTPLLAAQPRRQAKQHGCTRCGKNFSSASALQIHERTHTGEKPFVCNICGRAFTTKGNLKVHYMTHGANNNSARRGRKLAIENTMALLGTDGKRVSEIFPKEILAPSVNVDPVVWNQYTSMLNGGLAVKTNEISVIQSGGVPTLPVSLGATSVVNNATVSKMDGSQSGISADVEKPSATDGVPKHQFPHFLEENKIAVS
Method: universal PBM
Form: double-stranded DNA, one strand shown
Sample: in vitro
Concentration: 600 nM
Notes: 8-mer, flanks averaged, mean of replicates
Reading: higher = stronger binding
For `GATTTTTA`, the E-score was 0.278.
For `ATTGACTA`, the E-score was 0.124.
With `CAATGGAG` the E-score was 0.0147.
`CTTCGGCA` has an E-score of -0.243.
For `ATCGTGTC`, the E-score was 0.0058.
The E-score of `CCCGTACA` is reported as -0.179.

Series 3
Target: RING finger protein unkempt homolog, zinc fingers 1-6, GST-SBP tag (UNK, Homo sapiens, UniProt Q9C0B0, residues 30-357)
Sequence of UniProt Q9C0B0 (30-357, looked up): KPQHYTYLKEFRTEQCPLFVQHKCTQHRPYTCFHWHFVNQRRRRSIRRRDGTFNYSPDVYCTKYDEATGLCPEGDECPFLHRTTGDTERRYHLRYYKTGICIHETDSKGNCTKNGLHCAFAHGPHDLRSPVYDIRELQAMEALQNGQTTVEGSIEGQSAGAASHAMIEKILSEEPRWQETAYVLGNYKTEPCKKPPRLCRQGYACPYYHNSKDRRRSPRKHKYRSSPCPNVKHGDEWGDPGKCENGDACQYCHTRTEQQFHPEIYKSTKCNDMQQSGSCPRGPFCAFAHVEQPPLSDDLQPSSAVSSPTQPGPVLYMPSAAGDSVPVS
Method: RNA Bind-n-Seq
Form: RNA
Sample: in vitro
Concentration: not given
Notes: RNA with constant flanks, human and mouse sites, ends assumed
Baseline: input RNA pool
Reading: higher = stronger binding
All sequences stand within: GGGAGUUCUACAGUCCGACGAUC … CAACAGAGGAUUGAGCAUCA
The bound/input enrichment of `AAGCCCUUCUCCCUGGCGCCACGAGGUGCCUUCUUCCAGGAGAUGAGCAGCAGCGAUGUGAGCUCCAAGCUUACGCUCCUCACCUUGCACUUCCCGCGUUUGCGGCUGCUCUGGUGCCCC` is reported as 0.119 ratio.
`AAAAACCUUCUGCAAUGUGAAUCCUCACUGAAUCAUGCUAAAGAAAUACUCAGAAAUGCAGAGGAAGAGGAAAGCCGGGUACGAGCACAUGCCUGGAAUAUGAAGUUCAAUUUAGCACAU` has a bound/input enrichment of 0.507 ratio.
With `AACAACUUUCUUCAAACGCUAAAUCAAGCUUGGAAUGAUCAUCAAACAGCUAUGGUGAUGAUUAGAGACAUACUAAUGUACAUGGACCGUGUGUAUGUACAACAAAAUAAUGUGGAGAAC` the bound/input enrichment was 0.149 ratio.
The bound/input enrichment of `UUUGUAGAAAUCCUUGUCCCGGUGGCCGCUGCUGUCAAAAAUGAAGUCAACGUCCCCUGCCUCAGGAACUUUGUGGAGAGCCUGUACGAUACGACGUUGGAACUCUCCUCUCGGAAAAAG` is reported as 0.184 ratio.
`CUCAGCAACAAAAUGCUUCAACAAGUUCCAGAAAACAUAAAUUUUCCUGCUGAAGAAGAGAAAAUCUUGGAGUUUUGGACUGAAUUUAAUUGUUUUCAGGAAUGCUUAAAGCAAUCAAAA` gave a bound/input enrichment of 0.205 ratio.
With `CUCCUUUCCCAUGCCCGUGGGCAUAAGGAGAAAGGGGUGGUAAUGCAAUGCUCCCACUUAAUUUUAAAGCCAGUCCCAGCAGAUCAAAUGAUAGUUUCUCCGUCAAGCAAUACUUCCACU` the bound/input enrichment was 0.532 ratio.
With `UAUAUCCUCUCCCUCUACCUGUAACAAUUUUGUUUUCUACUGUUAAUUACAUUGUGUAUUUAUAGUUCUAUGCUUACUGUUGUGCAUAUACUGGCAAUAAAACUGUACAUAACAUUACUU` the bound/input enrichment was 0.209 ratio.
`UCUGUAAGGAGUAAUUUUGAUCAAAAGACGUGUUACUUCCCUUUGAAGGAAAAGUUUUUAGUGUGUAUUGUACAUAAAGUCGGCUUCUCUAAAGAACCAUUGGUUUCUUCACAUCUGGGU` has a bound/input enrichment of 0.59 ratio.
`UCAGAUAACCUUACCCGGGCUUGUAGCCUAGUGCGGGAGGCAGCAAAGCAAGGUGCCAACAUAGUUUCUCUGCCUGAGUGCUUCAAUUCUCCAUAUGGAACAACCUACUUUCCUGACUAU` has a bound/input enrichment of 0.243 ratio.

Further values, each from its own experiment
The fold induction of `PhoQ, residues 284 288 289 292 302 303 SIHMAM` is reported as 10.4 (PhoP, residues 12 14 15 18 19 GQAIL (Escherichia coli, UniProt P23836); Sort-seq, item: YFP reporter; E. coli; PhoQ-PhoP variant library, added: 10 µM Mg2+; baseline: high Mg2+ state, higher = stronger signaling).

For quick reference, copied from above (series 3):
`UCAGAUAACCUUACCCGGGCUUGUAGCCUAGUGCGGGAGGCAGCAAAGCAAGGUGCCAACAUAGUUUCUCUGCCUGAGUGCUUCAAUUCUCCAUAUGGAACAACCUACUUUCCUGACUAU` has a bound/input enrichment of 0.243 ratio.
`AAAAACCUUCUGCAAUGUGAAUCCUCACUGAAUCAUGCUAAAGAAAUACUCAGAAAUGCAGAGGAAGAGGAAAGCCGGGUACGAGCACAUGCCUGGAAUAUGAAGUUCAAUUUAGCACAU` has a bound/input enrichment of 0.507 ratio.
